Literature values as cited in several papers.
Protocols differ between the studies behind these lines. Several values in a cell are separate wells, animals, samples, runs or records. Numbers after ± are the reported error.

C=C[C@@H]1C[C@]1(NC(=O)[C@@H]1C[C@@H](Oc2ncc(OC)c3ccccc23)CN1C(=O)[C@@H](NC(=O)OC(C)(C)C)C(C)(C)C)C(=O)NS(=O)(=O)C1CC1
EC50 (hepatitis C virus; replicon replication; genotype 1b): 25 nM and 19 nM

CC1(C)N=C(N)N=C(N)N1c1cccc(Cl)c1
EC50 (respiratory syncytial virus; viral replication): ~8 nM

COCCN1CCn2cc(C(=O)NCc3ccc(F)cc3F)c(=O)c(O)c2C1=O
EC50 (human immunodeficiency virus 1; single-round vector infection; wild-type integrase): 3.9 ± 0.5 nM

CC1(C)N=C(N)N=C(N)N1c1ccc(Cl)c(Cl)c1
EC50 (respiratory syncytial virus; viral replication): ~8 nM

C=C[C@@H]1C[C@]1(NC(=O)[C@@H]1C[C@@H](Oc2ncc(OC)c3c(Cl)cccc23)CN1C(=O)[C@@H](NC(=O)OC(C)(C)C)C(C)(C)C)C(=O)NS(=O)(=O)C1CC1
EC50 (hepatitis C virus; replicon replication; genotype 1b): 9 nM

COc1cc(/C=C2\CCC/C(=C\c3ccc(O)c(OC)c3)C2=O)ccc1O
EC50 (dengue virus; viral replication, replicon): 8070 ± 1520 nM

O=C(NCc1ccc(F)cc1F)c1cn2ccn(CCCCCCO)c(=O)c2c(O)c1=O
EC50 (human immunodeficiency virus 1; single-round vector infection; wild-type integrase): 4.8 ± 0.9 nM

C=C[C@@H]1C[C@]1(NC(=O)[C@@H]1C[C@@H](Oc2cc(-c3ccccc3)nc3cc(OC)ccc23)CN1C(=O)[C@@H](NC(=O)OC(C)(C)C)C(C)(C)C)C(=O)NS(=O)(=O)C1(C)CC1
EC50 (hepatitis C virus; replicon replication; genotype 1b): 8 nM

CSCC[C@H](N)C(=O)N1CCC[C@H]1C(=O)Nc1ccc([N+](=O)[O-])cc1
EC50 (dengue virus 2; viral replication): 38700 ± 5400 nM

CC(C)n1ccn2cc(C(=O)NCc3ccc(F)cc3F)c(=O)c(O)c2c1=O
EC50 (human immunodeficiency virus 1; single-round vector infection; wild-type integrase): 3.8 ± 0.6 nM

O=C(OCC[18F])C1C2CCC(CC1c1ccc(/C=C\I)cc1)N2 (stereo not shown)
time to peak uptake (SERT; microPET; anaesthetised, cerebellum): 45 min

O=C(NCc1ccc(F)cc1F)c1cn2c(c(O)c1=O)C(=O)N(CCCCCCO)CC2
EC50 (human immunodeficiency virus 1; single-round vector infection; wild-type integrase): 31.7 ± 3.8 nM

CCCC(=O)Oc1cc(C(F)(F)F)nc2c(C(F)(F)F)cccc12
EC50 (Sclerotinia sclerotiorum; fungal growth): 0.41 µg/mL

Cn1ccn2cc(C(=O)NCc3ccc(F)cc3F)c(=O)c(O)c2c1=O
EC50 (human immunodeficiency virus 1; single-round vector infection; wild-type integrase): 2.7 ± 0.2 nM

Nc1c(C(=O)NCc2ccc(F)cc2F)c(=O)n(O)c2ncccc12
EC50 (HIV-1; viral replication, lentiviral vector; wild-type integrase): ~1 nM and 1.1 nM

COc1ccc(NC(=O)N2CCCCN3[C@H](CN(C)C)[C@H](c4ccc(C#Cc5ccccc5)cc4)[C@@H]3C2)cc1
EC50 (Toxoplasma gondii; parasite growth; RH PheRS L497I-FLuc): 1170 nM

O=C(O)c1cn(Cc2ccc(F)cc2)cc(O)c1=O
EC50 (human cytomegalovirus; viral replication; AD169 GFP reporter): 10000 nM

CCCCCCCCCCCCCCCCSSCCOP(=O)(O)CO[C@H](C)Cn1cnc2c(N)ncnc21
EC50 (HIV-1; viral replication): 0.5 nM

O=[N+]([O-])c1ccc(-c2nc3cc4cccnc4c(Cl)c3[nH]2)cc1
EC50 (hepatitis C virus; viral replication): 3100 nM

COC(=O)N[C@H](C(=O)N1CCC[C@H]1c1ncc(-c2ccc(-c3ccc(-c4cnc([C@@H]5CC6(CN5C(=O)[C@@H](NC(=O)OC)C(C)C)OCCO6)[nH]4)cc3)cc2)[nH]1)C(C)C
EC50 (hepatitis C virus; replicon; genotype 1a): 0.01 nM

COCCCCCCn1ccn2cc(C(=O)NCc3ccc(F)cc3F)c(=O)c(O)c2c1=O
EC50 (human immunodeficiency virus 1; single-round vector infection; wild-type integrase): 4.8 ± 0.2 nM

C=C[C@@H]1C[C@]1(NC(=O)[C@@H]1C[C@@H](Oc2cc(-c3ccccc3)nc3cc(OC)ccc23)CN1C(=O)[C@@H](NC(=O)OC(C)(C)C)C(C)(C)C)C(=O)O
EC50 (hepatitis C virus; replicon replication; genotype 1b): 550 nM

Cc1cc(O)c(=O)c(O)cc1C(=O)c1ccc(-c2ccccc2)cc1
EC50 (herpes simplex virus 1; viral replication): 120 nM

Cc1cc(N2CC[C@@](C#N)(C3(C)CC3)C2=O)cc(C(=O)NCc2cc(F)cc(-c3cnn(C)c3)c2)n1
EC50 (Toxoplasma gondii; PRS T592S mutant): 76 nM

O=C(NCc1ccc(F)cc1F)c1cn2ccn(CCCCCO)c(=O)c2c(O)c1=O
EC50 (human immunodeficiency virus 1; single-round vector infection; wild-type integrase): 10.8 ± 1.7 nM

C=C[C@@H]1C[C@]1(NC(=O)[C@@H]1C[C@@H](Oc2cc(-c3ccccc3)nc3cc(OC)ccc23)CN1C(=O)[C@@H](NC(=O)OC(C)(C)C)C(C)(C)C)C(=O)NS(=O)(=O)C1CC1
EC50 (hepatitis C virus; replicon replication; genotype 1b): 4 nM

COCCn1ccn2cc(C(=O)NCc3ccc(F)cc3F)c(=O)c(O)c2c1=O
EC50 (human immunodeficiency virus 1; single-round vector infection; wild-type integrase): 1.9 ± 0.4 nM

O=c1cc(Cc2ccc(-c3ccccc3)cc2)c2cccnc2n1O
EC50 (HIV-1 HXB2; viral replication; HeLa P4-2): 34000 nM

A few entries again:
O=C(NCc1ccc(F)cc1F)c1cn2ccn(CCCCCCO)c(=O)c2c(O)c1=O
EC50 (human immunodeficiency virus 1; single-round vector infection; wild-type integrase): 4.8 ± 0.9 nM

O=C(O)c1cn(Cc2ccc(F)cc2)cc(O)c1=O
EC50 (human cytomegalovirus; viral replication; AD169 GFP reporter): 10000 nM

CSCC[C@H](N)C(=O)N1CCC[C@H]1C(=O)Nc1ccc([N+](=O)[O-])cc1
EC50 (dengue virus 2; viral replication): 38700 ± 5400 nM

COC(=O)N[C@H](C(=O)N1CCC[C@H]1c1ncc(-c2ccc(-c3ccc(-c4cnc([C@@H]5CC6(CN5C(=O)[C@@H](NC(=O)OC)C(C)C)OCCO6)[nH]4)cc3)cc2)[nH]1)C(C)C
EC50 (hepatitis C virus; replicon; genotype 1a): 0.01 nM
